Results pooled from the literature.
Numbered parts are unrelated; each lists some results of a single study.

Series 1 — technique: RNA Bind-n-Seq; molecule type: RNA; sample: in vitro; concentration: not given; notes: RNA with constant flanks, ends assumed; reference: input RNA pool; reading: higher = stronger binding; quantity: bound/input enrichment
Target: RING finger protein unkempt homolog, zinc fingers 1-6, GST-SBP tag (UNK, Homo sapiens, UniProt Q9C0B0, residues 30-357)
Sequence of UniProt Q9C0B0 (30-357, looked up): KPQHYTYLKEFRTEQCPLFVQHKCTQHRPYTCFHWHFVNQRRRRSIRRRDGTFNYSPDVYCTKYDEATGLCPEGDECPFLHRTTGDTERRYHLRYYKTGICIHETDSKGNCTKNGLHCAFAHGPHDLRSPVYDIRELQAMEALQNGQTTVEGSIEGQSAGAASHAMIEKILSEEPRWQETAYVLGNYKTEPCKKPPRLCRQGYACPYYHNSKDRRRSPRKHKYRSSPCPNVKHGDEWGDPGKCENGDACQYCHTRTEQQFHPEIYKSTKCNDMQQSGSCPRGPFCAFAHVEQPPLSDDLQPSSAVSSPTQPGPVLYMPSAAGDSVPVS
All sequences stand within: GGGAGUUCUACAGUCCGACGAUC … CAACAGAGGAUUGAGCAUCA
GGAGCUGCGGGAACCGGACUCCGGGCGGGUUGGACUGCUGGAGUCAAUGAGAGAAGCUUUCCGGUUAAUUUGAAUAUAAGAUCAGAUCUGAUUGGCCCACCUGGACACCCCUUCAAGGAA: 0.236 ratio
AUUUUGGCUCUCAUUUCACUCUUCAGUGUUCCUGUUAUUUAUGAACGGCAUCAGGCACAGACCGAUCAUUAUCUAGGACUUGCAAAUAAGAAUGUUAAAGAUGCUAUGGCUAAAAUCCAA: 0.198 ratio
UAAAGUGUAUUCUGUACAUAAUUUACAAAUAAAACAUUUUAUUUUAAUUGUUACUUAUUAUUCCGAUAUUUCUCAACACUUAAAUUCAUAAAAUUAAGACCAUGUAAGGGUAUGUUUUUA: 0.247 ratio
UGGGGUGGGGUGGGGUGGGGGUGGGGGCCUUCCCUCUGCUUGCUCUGCAGAUGAGGGGACCGCCUUCUCUAUCCUUUGCAGCUCUGACAAUUGCCCCGGACCUGCCCAUGCCGGCAUACC: 0.736 ratio
GAUAAAGACCCCAACAAGAAGAUGAAACGAAACUUAAGGAAAAUUCUGGAUAGUAAAGCAACCGACCUUAUGAAUGCACUAAUGAGGCUAAAUCAGAUCAGGCCUGGGCUUCAGUAUAAG: 0.341 ratio
GAAGAUGACUCUCAAGAAGAGGAAGAAGUCAGCCUACCCAAACGAGGAAGACCACAAGUCCGAUUGCCAGUUAAAACAAGAGGGAAACUUAGCUCUUCUUUCUCAAGUCGUGGCCAACAA: 0.195 ratio
GUGGGAGUUCUCCUACAGGAUCAUGAUGUUCGGCAGAGUGAAUUUCAGCAACUUCCGUACCACCGGAUUUUUAUCAUGCUGCUGUUGGAGCUCAAUGCACCCGAGCAUGUGUUGGAAACC: 0.169 ratio
AAAAGGGAUUUGGGCCACUACCCAGCUAUUAUUGUUCAGUCAGUUGUGUCUCCUACCCACACCGACAUGUGUGUGCAUAUGUACAACACACACACACACACACACACACACACACACACA: 0.786 ratio
AAUAUAAAAGAAUCUCCGAAGAGGCCAGAAACUAGAUCCUUUACUCCUGAAGAAUUCUUCCGUAUUUUCAAUAGAUCCAUUGAUGCCUUUAAGGACUUUAUGGUGGCAUCUGACACUAGU: 2.38 ratio
GCAUCUAUCGAGUUUGCAAUGUCACAACCUCUCUGAUCUUGUGCUCAGCAUGAUUCUUUAACCGAAGUUUUAUUUUUUCGUGCACUCUGCUAAUCAUGUGGGUGAGCCAGUGGAACAGCG: 0.262 ratio
UGGAGUCUGGCUUUGAAAGAUUUCAUUGUUGGUAGAAAUAACAGGUUGAGAAAGAGGGAGUCCGCAUCACCUAAAACCUGCACGUGAACAAGGGUUGACAUGAUACACUAUGGCCUUAGA: 0.297 ratio

Series 2 — technique: aptamer microarray, sandwich; molecule type: DNA with 2'F-ANA; sample: in vitro; concentration: 200 nM; together with: Cy3 exosite-II aptamer, 400 nM; reading: higher = stronger binding; quantity: mean fluorescence intensity; sequence: GGTTGGTGTGGTTGG
Target: Prothrombin, mature alpha-thrombin (F2, Homo sapiens, UniProt P00734)
Notes: whole 15-mer aptamer, many near background
2'F-ANA at 2 3 6 7 12 13 15: 811 a.u.
2'F-ANA at 3 4 5 6 7 8 10 12 13 14: 49.2 a.u.
2'F-ANA at 3 4 5 7 9 12 13: 116 a.u.
2'F-ANA at 1 2 3 6 9 10 11 12 13: 74.7 a.u.
2'F-ANA at 5 6 12: 187 a.u.
2'F-ANA at 1 4 7 9 10 14 15: 45.3 a.u.
2'F-ANA at 2 7 9 15: 446 a.u.
2'F-ANA at 2 3 10 11 12 13: 425 a.u.
2'F-ANA at 1 3 6 7 10: 90 a.u.
2'F-ANA at 1 2 5 6 7 12 13: 79.9 a.u.
2'F-ANA at 1 7 9 10 11 12 14: 46.2 a.u.
2'F-ANA at 3 4 5 7 10 13 14 15: 56.2 a.u.
2'F-ANA at 1 2 5 7 8 9: 68.5 a.u.
2'F-ANA at 1 2 6 8 10 11 12 15: 63.8 a.u.
2'F-ANA at 3 4 6 10 11 12 14: 174 a.u.
2'F-ANA at 2 3 7 11 12 15: 1020 a.u.

Series 3 — technique: RNA Bind-n-Seq; molecule type: RNA; sample: in vitro; concentration: 1 µM; notes: whole 134-nt RNA, ends assumed; together with: 150 mM KCl; reference: input library; reading: higher = stronger binding; quantity: log2 enrichment
Target: Ras GTPase-activating protein-binding protein 1, RRM domain (G3BP1, Homo sapiens, UniProt Q13283)
Sequence of UniProt Q13283 (whole entry, looked up): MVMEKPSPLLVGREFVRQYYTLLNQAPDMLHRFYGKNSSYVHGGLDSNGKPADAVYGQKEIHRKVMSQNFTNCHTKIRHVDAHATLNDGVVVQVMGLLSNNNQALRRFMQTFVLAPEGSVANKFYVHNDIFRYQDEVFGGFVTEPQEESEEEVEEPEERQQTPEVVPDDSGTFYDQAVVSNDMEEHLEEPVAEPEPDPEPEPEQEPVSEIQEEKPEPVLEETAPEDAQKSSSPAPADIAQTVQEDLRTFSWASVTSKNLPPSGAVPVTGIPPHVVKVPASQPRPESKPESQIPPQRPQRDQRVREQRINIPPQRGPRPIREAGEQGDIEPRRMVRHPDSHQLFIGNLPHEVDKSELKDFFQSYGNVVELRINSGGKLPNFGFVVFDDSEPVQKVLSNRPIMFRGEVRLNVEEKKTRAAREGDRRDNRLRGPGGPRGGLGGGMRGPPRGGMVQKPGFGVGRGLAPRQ
All sequences stand within: GGGAGUUCUACAGUCCGACGAUC … UGGAAUUCUCGGGUGUCAAGG
GUCCUGUGCUACACAUCGUAUGUACCGAAUCAAAGUGUGUGUGUGUGUGUGUGUGAAAAAAGUAUUAUGUUACGCCGUUCGGAUCUGCAC: 0.0307
CACAGACAACACGCACCCACACAGACACAGAGGGAAGGGGUUGGGAUGGGGACAGGGUGCACAGCAGGGCGGGGUAGGACCCCAGCCCUU: -0.474
CAAGUCCUGUGCUACACAUCGUAUGUACCGAAUCAAAUUUAAACCCAAAUUUAAAAAAGUAUUAUGUUACGCCGUUCGGAUCUGCACUUC: -0.129
CCUCAAGUCCUGUGCUACACAUCGUAUGUACCGAAUCGGAAGGAAGGGAAGGGAAAGUAUUAUGUUACGCCGUUCGGAUCUGCACUUCCA: -0.279
CCUGUGCUACACAUCGUAUGUACCGAAUCGGGGCCCCCCCGGGCCCCCCCGGCCCCCCCGGAAAGUAUUAUGUUACGCCGUUCGGAUCUG: -0.642
UUGAUGCCCCAGAUGUGGAUGUUCAUGGCCCAGACUGGCACCUGAAGAUGCCUAAGAUGAAAAUGCCCAAGUUCAGCAUGCCUGGCUUCA: 0.0728
UCCUGUGCUACACAUCGUAUGUACCGAAUCGGGGUUUUUUUGGGGAAAAAGGGGAGGGGAAAGUAUUAUGUUACGCCGUUCGGAUCUGCA: 0.491
CCUGUGCUACACAUCGUAUGUACCGAAUCGGGGAAAAAAGGGGAAAAAAGGAAAAAAGGGGAAAGUAUUAUGUUACGCCGUUCGGAUCUG: -0.0918
UGGGAGGUGGAUUGUGUUUAUUUUUUUAGCUCAUUUCCAGGGGUGGGAAUUUUUUUUUAAUAUGUGUCAUGAAUAAAGUUGUUUUUGAAA: 1.91
ACCAUGCAGGUGGGCAUCUUUGGGAAGUGGGGCAGGGGGGGGAUAGGGAGGGGGGUAACACUUUGGGAACAGGUGGUCCCAGGUCGUUUC: -0.628
GCAGGAAGUAAAAACAAAUGGACAUGCUUCGGAUAGUGGCAGGGGUGGGGGUUGCUAAGGAAAGGGUGGGAUGGGAGUGGGUAAAGAGUU: 1.57
UCCUGUGCUACACAUCGUAUGUACCGAAUCAAACCCCCAAACCCCCCCAAAUUUUUAAAAAAGUAUUAUGUUACGCCGUUCGGAUCUGCA: -0.0604
UCAAGUCCUGUGCUACACAUCGUAUGUACCGAAUCGGGAAAGGGUUUGGGUGGGAAAGUAUUAUGUUACGCCGUUCGGAUCUGCACUUCC: 0.684
UCAAGUCCUGUGCUACACAUCGUAUGUACCGAAUCGGUUUGGGGUUUGGUUUGGGAAAGUAUUAUGUUACGCCGUUCGGAUCUGCACUUC: -0.235

Series 4 — technique: RNA Bind-n-Seq; molecule type: RNA; sample: in vitro; concentration: 365 nM; reference: no-protein control; reading: higher = stronger binding; quantity: RBNS enrichment (R)
Target: RNA binding protein fox-1 homolog 2, RRM domain, GST-SBP tag (RBFOX2, Homo sapiens, UniProt O43251-10, residues 100-194)
Notes: natural RNA segment, single round, ends assumed
All sequences stand within: GGGAGUUCUACAGUCCGACGAUC … UGGAAUUCUCGGGUGCCAA
Construct (chain): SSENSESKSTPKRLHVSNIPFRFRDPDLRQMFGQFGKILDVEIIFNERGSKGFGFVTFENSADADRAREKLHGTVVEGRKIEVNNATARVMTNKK
GCUUGUGCACCGCCAGCUUCUGUCUCCAGAAAAGUGUAACUUUGCUCUGUUUCUGCAUGAAGCACACAUACUCUGGUGUCAACACGCUAAGUAGUUUAAAUGAGGGAAAG: 4.57
AGGGAAAGGGGACUUGUGGUAGUGGACCAUACCUGGGGACCAAAAGAGACCCACUGUAAUUGAUGCAUUGUGGCCCCUGAUCUUCCCUGUCUCACACUUCUUUUCUCCCA: 1.35
GUCUGCAAUUUGGAUUUUCUCCAAGUACAUCAUGACACCUUCGUCCUCCUGAACUGGAGAGGGGAAGAAAUGAAAGGCAUCCCAUAUCAACCAUUUCCUCAGUCCCUGAC: 0.196
AGAAAGCACAGUGGACGGGUUGUGUUUGUCCCAGCCCUCUCUGUAGGCUGAGCAGUGCAGCGGCGCCCACAGGUUUACACACAAGUUUGGUUUGGUUUCUUCUGUUCUGC: 0.313
CCUCUGUCUUGUCAGUGGAGGUGCCUGGGUGGGGAGCAGGUCUCAGGCCUCUUGUCCUCUCCCCAGUGGCUCCAGGCCUCACUAGUGGCAAGGGCAGGAUGAGGCUGCAC: 0.41
AGAGACAAAGACAAAGACUGCCUGCCUUGGAGGGUCACUGAGGGAGACCUGUGCCUGAUUUCAUUAGGAAAUCCAUUCUGUUAUUUUUUUUUGGUGCUGUUGGCUACUUU: 0.938
CAUAAAGUUACAGUUUGAUACAGGAAUUAUUAGGAGUAAUUCUUUUCUGUUUCUGUUUAUAAUGAAGAACACUGUAGCUACAUUUUCAGAAGUUAACAUCAAGCCAUCAA: 0.541
ACACUCAGUGAGACUGGGCCCUGGCCUUGUAAGCUCUGUGAUGUCAGCCUGCCCAUGGCACCCCAAAAGCAAGAUCCUGGAGAUCACAUUUGAUCCUACCAAAACCACUG: 0.342
CACUGAGGUCAUUGUUUAGAGCAGAUCUCAAGCAGCCGUUUGGCCACGCCAUAUCCUUUGUGGAGCAUAGUGGGUUAUCUAUCUGUCUGUCUGUCUAUGUAUCUGUCUAU: 0.318
UAUUCUCUAAAGGGCUCUUGUCUGUUCAUUCAUCUCCCAUUCGUUCACUUAGUCAACAAGUGAUAAGUAAGUAACUUUCAUGUGCUAGGUGCUGUUAGACACAGAAGGUA: 0.525
UUCUUUCAUGAAGAACCCUGUUUAAAACUGGGGUCAUUAACUGUUCUAUUCUAACAAAGUAGUCUUGAGUUUCAUUUCUUAUGCCCCAUGGUAGUGGGAACCAGACCAAU: 0.203
CUUUAAGACUUUAAAUACAGAUUUAGUUUUGAGUGUUUGAGAGACCACUACACUUGUAUGGUUGAGUGUUUAAAAUGUCUAUCACCCUCACUUCAGAGUGUGACUCUUUA: 0.431
